{"data": "Published values of several laboratories", "note": "± marks the error that the study gave."}
{"Compound": "CN1CCC[C@H](CN2c3ccccc3Sc3ccccc32)C1.Cl", "test system": "Wistar rat female, eye", "conditions": "oral, 16 mg/kg", "measurement": "Cmax", "value": "961 ng/g"}
{"Compound": "C=CC(=O)N1CCC[C@@H](n2nc(-c3ccc(Oc4ccccc4)cc3)c3c(N)ncnc32)C1", "test system": "male Wistar rat, kidney", "conditions": "oral, 50 mg/kg", "measurement": "Cmax", "value": "319 ± 97.9 ng/g"}
{"Compound": "C=CC(=O)N1CCC(Oc2cc3c(Nc4ccc(Cl)c(Cl)c4F)ncnc3cc2OC)CC1", "test system": "Sprague-Dawley rat male, plasma", "conditions": "oral, 2 mg/kg, together with: schisandrin B 20 mg/kg daily 1 weeks pretreatment", "scale": "relative to: no pretreatment", "measurement": "Cmax ratio", "value": "1.59 fold"}
{"Compound": "COc1cc([C@H]2OC[C@H]3[C@@H]2CO[C@@H]3c2ccc(O[C@@H]3O[C@H](CO)[C@@H](O)[C@H](O)[C@H]3O)c(OC)c2)ccc1O[C@@H]1O[C@H](CO)[C@@H](O)[C@H](O)[C@H]1O", "test system": "rat, plasma", "conditions": "oral, dose not given, dosed as combined Eu and Pc extracts", "scale": "relative to: single extracts", "measurement": "Cmax decrease", "value": "40.1 ± 21.7 ng/mL"}
{"Compound": "Cc1cccc(CNC(=O)c2cn(CCNC(=O)c3ccccc3Sc3c([N+](=O)[O-])ncn3C)c3cc4c(cc3c2=O)OC(F)(F)O4)n1", "test system": "Sprague-Dawley rat, male, whole blood", "conditions": "intramuscular, 10 mg/kg of parent drug", "measurement": "Cmax", "value": "26.2 ± 14.7 ng/mL"}
{"Compound": "COC[C@@H](CC(C)C)NC(=O)c1ccc(C)c(C)c1", "test system": "Sprague-Dawley rats, plasma", "conditions": "oral, 100 mg/kg", "scale": "relative to: female over male", "measurement": "Cmax ratio", "value": 1.94}
{"Compound": "Cn1c(C(F)(F)F)cc(=O)n(-c2cc(Oc3cccnc3OCC(=O)O)c(Cl)cc2F)c1=O", "test system": "Crl:CD(SD) rats, male, plasma", "conditions": "oral diet, 800 ppm in diet, day 1, 90-day toxicity study", "measurement": "Cmax", "value": "1260 ng/mL"}
{"Compound": "Cc1nc2cccc(OCC(C)(C)C(=O)NC(C)C)c2c(N)c1C(=O)O", "test system": "male Sprague-Dawley rat, plasma", "conditions": "dietary, 60 mg/kg/day", "scale": "relative to: day 90 over day 7", "measurement": "Cmax ratio", "value": 9.18}
{"Compound": "CSc1ccccc1C(=O)NCCn1cc(C(=O)NCc2cccc(C)n2)c(=O)c2cc3c(cc21)OC(F)(F)O3", "test system": "Sprague-Dawley rat, male, whole blood", "conditions": "intramuscular, 10 mg/kg of parent drug", "measurement": "Cmax", "value": "5.08 ± 2.24 ng/mL"}
{"Compound": "CCCC(CCC)NC(=O)c1ccc2c(c1)OCO2", "test system": "rat Sprague-Dawley, plasma", "conditions": "intravenous, 1 mg/kg", "scale": "relative to: female over male", "measurement": "Cmax ratio", "value": 0.85}
{"Compound": "Cc1cc(C(=O)NC(C)(C)COc2cccc3c2C(N)=NS(=O)(=O)N3)cc(C)n1.O=S(=O)(O)O", "test system": "Sprague-Dawley rat, plasma", "conditions": "oral, 100 mg/kg, vehicle 1% methylcellulose", "scale": "relative to: female over male", "measurement": "Cmax ratio", "value": 1.76}
{"Compound": "Cc1cccc(CNC(=O)c2cn(CCNC(=O)c3ccccc3S)c3cc4c(cc3c2=O)OC(F)(F)O4)n1", "test system": "Sprague-Dawley rat, male, whole blood", "conditions": "intramuscular, 3 mg/kg of parent drug", "measurement": "Cmax", "value": "326 ± 90.6 ng/mL"}
